# Measured values of several laboratories.
# UniProt Q15418, sequence (whole entry, looked up): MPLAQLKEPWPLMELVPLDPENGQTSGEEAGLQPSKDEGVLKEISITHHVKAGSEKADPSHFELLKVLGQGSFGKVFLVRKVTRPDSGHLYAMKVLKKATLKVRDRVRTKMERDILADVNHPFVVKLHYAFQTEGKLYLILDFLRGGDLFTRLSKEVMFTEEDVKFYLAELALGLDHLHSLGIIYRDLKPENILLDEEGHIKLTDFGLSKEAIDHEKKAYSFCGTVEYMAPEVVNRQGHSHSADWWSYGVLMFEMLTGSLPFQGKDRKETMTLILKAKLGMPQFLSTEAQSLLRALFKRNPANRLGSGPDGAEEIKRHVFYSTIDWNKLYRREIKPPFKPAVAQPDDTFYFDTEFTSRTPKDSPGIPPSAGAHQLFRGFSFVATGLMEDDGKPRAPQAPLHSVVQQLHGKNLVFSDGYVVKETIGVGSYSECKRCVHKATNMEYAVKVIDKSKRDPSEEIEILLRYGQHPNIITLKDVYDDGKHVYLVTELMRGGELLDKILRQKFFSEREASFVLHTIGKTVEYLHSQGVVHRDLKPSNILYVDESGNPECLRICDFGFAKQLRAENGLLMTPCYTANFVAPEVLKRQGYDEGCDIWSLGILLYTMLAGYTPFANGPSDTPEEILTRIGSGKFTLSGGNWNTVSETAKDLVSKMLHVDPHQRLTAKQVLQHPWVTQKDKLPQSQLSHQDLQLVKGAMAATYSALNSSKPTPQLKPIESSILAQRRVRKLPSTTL
SMILES,tested on,assay,system,conditions,endpoint,value
O=C(NNc1cccc(Cl)c1)c1nnc(CC23CC4CC(CC(C4)C2)C3)o1,Rhizoctonia solani,microbial growth,,50 µg/mL,inhibition,61.2%
COc1ccc(-n2ccnc2SCC(=O)Nc2cccc(C(F)(F)F)c2)c(OC)c1,Plasmodium falciparum,"parasite growth, SYBR Green",3D7,72 h,EC50,1730 nM
COC(=O)c1cc(-c2cccc(NC(=O)Nc3ccc(Cl)c(C(F)(F)F)c3)c2)on1,Mycobacteroides chelonae,"microbial growth, broth dilution",ATCC35752,48 h,MIC,> 64 µg/mL
C#Cc1cc(O)c(C=NNC(=O)c2ccc(Br)cc2Br)cc1C#C,Cryptococcus neoformans,"microbial growth, broth dilution",,pH 7.4,MIC80,0.015 µg/mL
O=C(NNc1ccc(F)c(F)c1)c1nnc(CC23CC4CC(CC(C4)C2)C3)o1,Rhizoctonia solani,microbial growth,,50 µg/mL,inhibition,70.5%
COC1=CC2=[N+](C)CCc3c[nH]c(c32)C1=O,Plasmodium falciparum,"parasite growth, SYBR Green",3D7,blood stage,IC50,599 nM
COC(=O)c1cc(-c2cccc(NC(=O)Nc3cccc(Cl)c3)c2)on1,Mycobacteroides chelonae,"microbial growth, broth dilution",ATCC35752,48 h,MIC,> 64 µg/mL
O=C(NNc1ccc(Cl)c(Cl)c1)c1nnc(CC23CC4CC(CC(C4)C2)C3)o1,Rhizoctonia solani,microbial growth,,50 µg/mL,inhibition,75.4%
COCc1ccccc1C(=O)NCCOc1cc(C)cc(C)c1,Plasmodium falciparum,"parasite growth, SYBR Green",3D7,72 h,EC50,116 nM
O=c1[nH]c2cc(-c3ccc(F)cc3)sc2c(=O)n1O,Human betaherpesvirus 5,"viral replication, inhibitor",,"10 µM, 7 days",inhibition,10%
O=C(NNc1ccc(Cl)cc1)c1nnc(C23CC4CC(CC(C4)C2)C3)o1,Rhizoctonia solani,microbial growth,,,EC50,> 25 µg/mL
COC(=O)c1cc(-c2cccc(NC(=O)Nc3cc(Cl)ccc3Cl)c2)on1,Mycobacteroides chelonae,"microbial growth, broth dilution",ATCC35752,48 h,MIC,> 64 µg/mL
C#Cc1cccc(C=NNC(=O)c2ccc(Br)c(Br)c2)c1O,Cryptococcus neoformans,"microbial growth, broth dilution",,pH 7.4,MIC80,0.015 µg/mL
CC(C)(C)C(O)(CCc1ccc(Cl)cc1)Cn1cncn1 (stereo not drawn),Rhizoctonia solani,microbial growth,,200 µg/mL,inhibition,100%
Cc1cc(Nc2ccc(C(F)(F)F)cc2)n2ncnc2n1,Plasmodium falciparum,"parasite growth, SYBR Green",3D7,72 h,EC50,1200 nM
C#Cc1ccc(O)c(C=NNC(=O)c2cc(Br)cc(Br)c2O)c1,Candida albicans,microbial growth,,pH 7.4,MIC80,0.015 µg/mL
COC(=O)c1cc(-c2cccc(NC(=S)Nc3ccc(F)c(Cl)c3)c2)on1,Mycobacteroides chelonae,"microbial growth, broth dilution",ATCC35752,48 h,MIC,32 µg/mL
O=C(NNc1ccc(F)c(F)c1)c1nnc(C23CC4CC(CC(C4)C2)C3)o1,Rhizoctonia solani,microbial growth,,50 µg/mL,inhibition,42.5%
[2H]c1c([2H])c([C@]2([2H])CCCN2C(=O)C(C)(C)Oc2ccc3cn[nH]c3c2)c([2H])c([2H])c1C([2H])([2H])[2H],"Ribosomal protein S6 kinase alpha-1, C-terminal kinase domain (RPS6KA1, Homo sapiens, UniProt Q15418)","binding, competition with immobilised ligand",,1 µM,remaining binding,71%
Cc1ccc(-n2nc(C(C)(C)C)cc2NC(=O)Nc2ccc(OCCN3CCOCC3)c3ccccc23)cc1,Betacoronavirus 1,viral replication,"MRC5, OC43",,IC50,11000 nM
O=C(NNc1cccc(Cl)c1)c1nnc(C23CC4CC(CC(C4)C2)C3)o1,Rhizoctonia solani,microbial growth,,,EC50,> 50 µg/mL
C#Cc1ccc(C=NNC(=O)c2ccc(COCC)cc2)c(O)c1,Candida albicans,microbial growth,,pH 7.4,MIC80,1 µg/mL
O=C(NNc1cc(F)ccc1F)c1nnc(C23CC4CC(CC(C4)C2)C3)o1,Rhizoctonia solani,microbial growth,,50 µg/mL,inhibition,100%
COC(=O)c1cc(-c2ccc(OC)c(NC(=O)Nc3ccc(Cl)c(Cl)c3)c2)on1,Pseudomonas aeruginosa,"microbial growth, broth dilution",ATCC27853,,MIC,> 64 µg/mL
O[C@@H](CN[C@H](COCC1CC1)Cc1ccccc1)c1cc(Cl)cc2c1-c1ccc(Cl)cc1C2,Plasmodium falciparum,"parasite growth, SYBR Green",W2,"48 h, drug-resistant strain, blood stage",IC50,6.4 nM
C#Cc1cccc(C=NNC(=O)c2ccc(Br)cc2Br)c1O,Cryptococcus neoformans,"microbial growth, broth dilution",,pH 7.4,MIC80,0.015 µg/mL
CC(=O)N1CCN(c2ccc(OCC3COC(Cn4ccnc4)(c4ccc(Cl)cc4Cl)O3)cc2)CC1 (stereo not drawn),Candida albicans,"microbial killing, broth dilution",CGMCC2,48 h,MFC,32 µM
COC(=O)c1cc(-c2cccc(NC(=S)Nc3ccc(F)cc3)c2)on1,Mycobacteroides chelonae,"microbial growth, broth dilution",ATCC35752,48 h,MIC,> 64 µg/mL
O=C(NCCc1ncc(C(F)(F)F)cc1Cl)c1ccccc1C(F)(F)F,Rhizoctonia solani,microbial growth,,,EC50,> 50 µg/mL
Cc1nc(Nc2ccc(C)c(Cl)c2)c2c(C)noc2n1,Plasmodium falciparum,"parasite growth, SYBR Green",3D7,72 h,EC50,1660 nM
CC[C@H](C)C[C@H](C)CCCCCCCCC(=O)N[C@H]1C[C@@H](O)[C@@H](NCCN)NC(=O)[C@@H]2[C@@H](O)CCN2C(=O)[C@H]([C@H](O)CCN)NC(=O)[C@H]([C@H](O)[C@@H](O)c2ccc(O)cc2)NC(=O)[C@@H]2C[C@@H](O)CN2C(=O)[C@H]([C@@H](C)O)NC1=O,Candida tropicalis,"microbial killing, broth dilution",ATCC13803,48 h,MFC,1 µg/mL
C=C(C)[C@@]12C[C@@H](COC(=O)c3ccccc3)[C@@]34OC5(O[C@@H]1[C@@H]3[C@@H]1O[C@]1(CO)[C@@H](O)[C@@]1(O)[C@H]4[C@H]([C@H](C)[C@@H]1OC(=O)c1ccccc1)[C@H](C)CCCCCC[C@H]5O)O2,Human immunodeficiency virus 1,viral replication,MT4,,IC50,0.28 nM
Nc1ncnc2c([C@@H]3N[C@H](CO)[C@@H](O)[C@H]3O)c[nH]c12,Dengue virus,viral replication,"Vero 76, DENV2",0.9 µM,inhibition,9.4%
C#Cc1ccc(O)c(C=NNC(=O)c2ccc(COC)cc2)c1,Candida albicans,microbial growth,,pH 7.4,MIC80,0.25 µg/mL
COC(=O)c1cc(-c2cccc(NC(=O)Nc3cccc(C(F)(F)F)c3)c2)on1,Mycolicibacterium fortuitum,"microbial growth, broth dilution",ATCC6841,48 h,MIC,> 64 µg/mL
CCCCCCCCNCC(O)c1cc(Cl)cc2c1-c1ccc(Cl)cc1C2 (racemic),Plasmodium falciparum,"parasite growth, SYBR Green",W2,"48 h, drug-resistant strain, blood stage",IC50,3.7 nM
COC(=O)c1cc(-c2cccc(NC(=O)Nc3cccc(Cl)c3Cl)c2)on1,Mycobacteroides chelonae,"microbial growth, broth dilution",ATCC35752,48 h,MIC,> 64 µg/mL
C=CCn1c(SCC(=O)Nc2cc(C)ccc2OC)nc2sc(C)cc2c1=O,Plasmodium falciparum,"parasite growth, SYBR Green",3D7,72 h,EC50,1200 nM
OC(Cn1cncn1)(Cn1cncn1)c1ccc(F)cc1F,Candida albicans,"microbial killing, broth dilution",CGMCC2,48 h,MFC,16 µM
Cc1cc(Nc2ccc(C)c(Cl)c2)n2ncnc2n1,Plasmodium falciparum,"parasite growth, SYBR Green",3D7,72 h,EC50,> 12500 nM
C#Cc1ccc(C=NNC(=O)c2ccc(COC)cc2)c(O)c1,Candida albicans,microbial growth,,pH 7.4,MIC80,2 µg/mL
CCc1nc2nc(C)cc(Nc3cc(C)cc(C)c3)n2n1,Plasmodium falciparum,"parasite growth, SYBR Green",3D7,72 h,EC50,2690 nM
C[C@@H]1[C@H](O)[C@@H](C)/C=C/C=C/C=C/C=C/C=C/C=C/C=C/[C@H](O[C@@H]2O[C@H](C)[C@@H](O)[C@H](N)[C@@H]2O)C[C@@H]2O[C@](O)(C[C@@H](O)C[C@@H](O)[C@H](O)CC[C@@H](O)C[C@@H](O)CC(=O)O[C@H]1C)C[C@H](O)[C@H]2C(=O)O,Candida albicans,"microbial killing, broth dilution",SP3902,48 h,MFC,1 µM
C#Cc1ccc(O)c(C=NNC(=O)c2ccc(Br)cc2)c1,Cryptococcus neoformans,microbial killing,,,MFC,1 µg/mL
COCC(C)n1c(SCC(=O)Nc2cc(C(F)(F)F)ccc2Cl)nc2ccccc2c1=O (stereo not drawn),Plasmodium falciparum,"parasite growth, SYBR Green",3D7,72 h,EC50,406 nM

# For quick reference, copied from above:
SMILES,tested on,assay,system,conditions,endpoint,value
O=C(NNc1cccc(Cl)c1)c1nnc(C23CC4CC(CC(C4)C2)C3)o1,Rhizoctonia solani,microbial growth,,,EC50,> 50 µg/mL
COC(=O)c1cc(-c2cccc(NC(=O)Nc3cc(Cl)ccc3Cl)c2)on1,Mycobacteroides chelonae,"microbial growth, broth dilution",ATCC35752,48 h,MIC,> 64 µg/mL
COC(=O)c1cc(-c2cccc(NC(=O)Nc3ccc(Cl)c(C(F)(F)F)c3)c2)on1,Mycobacteroides chelonae,"microbial growth, broth dilution",ATCC35752,48 h,MIC,> 64 µg/mL
CCc1nc2nc(C)cc(Nc3cc(C)cc(C)c3)n2n1,Plasmodium falciparum,"parasite growth, SYBR Green",3D7,72 h,EC50,2690 nM
C=CCn1c(SCC(=O)Nc2cc(C)ccc2OC)nc2sc(C)cc2c1=O,Plasmodium falciparum,"parasite growth, SYBR Green",3D7,72 h,EC50,1200 nM
